Measurements from different studies.
Lines come from different studies, so protocols differ. Values joined by “and” are separate records of one study, mostly repeats; a detail may differ.

The related SAE of `CNC(=O)c1cc(Oc2ccc(NC(=O)Nc3cc(C(C)(C)C)nn3-c3ccc4ncccc4c3)c(F)c2)ccn1` is reported as 33% (any related SAE, NCI CTC v3.0; human patients; oral, 1200 mg once daily, dose at onset).
For `COc1ccc(-c2c(-c3ccc(C#N)c(F)c3)nc(N3CCC(N)CC3)n(C)c2=O)cc1F`, “treatment-related adverse event incidence” read 8% (refers to: Neutropenia; human patients; oral, dose not given, grade 3 to 4, dose escalation, NG).
The micronucleated PCEs of `CCCC(CCC)NC(=O)c1ccc2c(c1)OCO2` is reported as 0.1% (Swiss albino CD-1 mice, male, bone marrow; intraperitoneal, 700 mg/kg, 48 h).
For `CC(=O)c1c(C)c2cnc(Nc3ccc(C4CCN(CCS(C)(=O)=O)CC4)cn3)nc2n(C2CCCC2)c1=O`, the t1/2 was 5.8 h (human, plasma; oral, 100 mg, day 1 single dose).
`C[C@@H](O)[C@@H]1NC(=O)CNC(=O)[C@H](Cc2c[nH]cn2)NC(=O)[C@H](Cc2c[nH]c3ccccc23)NC(=O)[C@H](CC(N)=O)NC(=O)CNC(=O)C[C@@H](C(=O)N[C@@H](Cc2c[nH]c3ccccc23)C(=O)N[C@@H](Cc2ccccc2)C(=O)N[C@@H](Cc2ccccc2)C(=O)N[C@@H](CC(N)=O)C(=O)N[C@@H](Cc2ccc(O)cc2)C(=O)N[C@@H](Cc2ccc(O)cc2)C(=O)N[C@@H](Cc2c[nH]c3ccccc23)C(=O)O)NC(=O)[C@@H]2CCCN2C(=O)[C@H](CO)NC1=O` gave a Vss of 0.491 L/kg (male CD-1 mouse; intravenous, 3 mg/kg).
`N#CCNC(=O)c1ccc(-c2ccnc(Nc3ccc(N4CCOCC4)cc3)n2)cc1` has a presyncope incidence of 0% (healthy volunteers; oral, 200 mg, added: midazolam 5 mg).
With `c1ccc2c(c1)ccc1c3ccccc3ccc21` the metabolism rate was 11.5 pmol/min/mg (pooled human liver microsomes; 2.5 µM, pH 7.4).
`c1csc(CNc2cc[nH]n2)c1` — result for “micronucleated PCE per 1000 PCE”: 0.8 (micronucleus; CD-1 mouse Hsd:ICR(CD-1), male, bone marrow; oral, 500 mg/kg/day, 3 days).
Under “subjects with drug-related somnolence”, `C[C@]1(CO)Cc2ncn(-c3ccc(C#N)c(Cl)c3)c2C(=O)O1` is recorded as 0% (human; 20 mg multiple doses, fasted).
`COc1cc2c(Oc3ccc4[nH]c(C)cc4c3F)ccnc2cc1OCC1(N)CC1`: “grade 1 or 2 Hypertension” 9.1% (paediatric recurrent refractory sarcoma; 12 mg).
`CN1CC[C@@H](c2c(O)cc(O)c3c(=O)cc(-c4ccc(C(F)(F)F)cc4Cl)oc23)[C@@H]1CO`: “patients with adverse event” 25% (refers to: Fatigue; AML; oral, 150 mg, intermittent dosing).
`C[C@@H](NC(=O)N1C(=O)[C@H](Cc2ccnc(N)c2)[C@H]1C(=O)O)C1CCCCC1` — result for “related decreased WBC”: 0% (healthy Chinese adults; continuous intravenous infusion, 1.0 mg/kg/h, 5.0 days).
The breathing score of `CC(C)[C@@H]1NC(=O)CNC(=O)[C@H](CC(N)=O)NC(=O)[C@H](CCCNC(=N)N)NC(=O)[C@H](Cc2ccc(O)cc2)NC(=O)[C@H](C(C)C)NC(=O)[C@@H](NC(=O)[C@@H](NC(=O)[C@H](CC(N)=O)NC(=O)[C@H](Cc2c[nH]c3ccccc23)NC(=O)[C@H](C)NC(=O)[C@H](Cc2ccccc2)NC(=O)CN)C(C)C)CSSC[C@@H](C(=O)N[C@@H](Cc2cnc[nH]2)C(=O)N[C@@H](CCCNC(=N)N)C(=O)N[C@@H](CCCNC(=N)N)C(=O)N[C@@H](C)C(=O)N[C@@H](CC(N)=O)C(N)=O)NC(=O)[C@H](C(C)C)NC(=O)[C@H](CCCNC(=N)N)NC1=O` is reported as 0 (ICR mouse; ip, 10 mg/kg; direction not given).
The Tmax of `CCC[C@@](N)(CO)CCc1ccc(OCCCCCC(C)C)cc1` is reported as 6 h (dog, male hounds, plasma; oral capsule, 10 mg/kg, median).
`CO[C@H]1C[C@@H]2CC[C@@H](C)[C@@](O)(O2)C(=O)C(=O)N2CCCC[C@H]2C(=O)O[C@H]([C@H](C)C[C@@H]2CC[C@@H](OC(=O)NCCOCCOCCOCCOCCOCCOCCOCCOCCC(=O)N3CCc4cc(Cn5nc(-c6ccc7oc(N)nc7c6)c6c(N)ncnc65)ccc4C3)[C@H](OC)C2)C[C@@H](O)[C@H](C)/C=C(\C)[C@@H](O)[C@@H](OC)C(=O)[C@H](C)C[C@H](C)/C=C/C=C/C=C/1C`: “incidence of Dysgeusia TEAE” 0% (patients with advanced solid tumours; intravenous, 1.6 mg/3 mg weekly, any grade).
Under “fatal adverse events”, `O=C(c1ccc(F)c(F)c1Nc1ccc(I)cc1F)N1CC(O)([C@@H]2CCCCN2)C1` is recorded as 0% (patients aged sample A to sample B years; oral, dose not given).
`N=C(N)NCCC[C@@H](NC(=O)[C@@H](N)Cc1ccccc1)C(=O)N[C@@H](Cc1ccccc1)C(=O)N[C@@H](CCCCN)C(N)=O`: “mean fraction excreted in urine” 1.78% (LC-MS; human; 25 mg, 23.83 h).
`COc1ccc(C[C@@H]2NC(=O)[C@H]([C@@H](C)O)NC(=O)[C@@H]3[C@@H]4CCN3C(=O)[C@@H]3Cc5cn(c6ccc(F)cc56)CCCCCCN(Cc5ccc(cc5)CCNC(=O)[C@]5(C)CCCN5C2=O)C(=O)CCC(=O)N[C@@H](C)C(=O)N[C@H](CNC(=O)CCCCC[N+](C)(C)C)C(=O)N[C@@H](Cc2cccc(c2)CNC(=O)CO4)C(=O)N3)cc1`: “participants with adverse event” 3.2% (refers to: neck pain; human; dose not given).
`CC[C@H](C)[C@H](NC(=O)[C@H](Cc1ccccc1)NC(=O)[C@H](CCC(=O)O)NC(=O)[C@H](CCCNC(=N)N)NC(=O)[C@H](C)NC(=O)[C@H](C)NC(=O)[C@H](CCC(N)=O)NC(=O)[C@H](CCC(=O)O)NC(=O)[C@H](CCC(=O)O)NC(=O)[C@H](CC(C)C)NC(=O)[C@H](Cc1ccc(O)cc1)NC(=O)[C@H](CO)NC(=O)[C@H](CO)NC(=O)[C@@H](NC(=O)[C@H](CC(=O)O)NC(=O)[C@H](CO)NC(=O)[C@@H](NC(=O)[C@H](Cc1ccccc1)NC(=O)[C@@H](NC(=O)CNC(=O)[C@H](CCC(=O)O)NC(=O)[C@H](C)NC(=O)CCc1cnc[nH]1)[C@@H](C)O)[C@@H](C)O)C(C)C)C(=O)N[C@@H](C)C(=O)N[C@@H](Cc1c[nH]c2ccccc12)C(=O)N[C@@H](CC(C)C)C(=O)N[C@H](C(=O)N[C@@H](CCCNC(=N)N)C(=O)NCC(=O)N[C@@H](CCCNC(=N)N)C(=O)N[C@@H](CCCCNC(=O)COCCOCCNC(=O)COCCOCCNC(=O)CC[C@H](NC(=O)CCCCCCCCCCCCCCCCC(=O)O)C(=O)O)C(=O)NCC(=O)NCC(=O)N[C@@H](CO)C(=O)N[C@@H](CCSC)C(=O)N[C@H](C(=O)N[C@@H](CCCCNc1c(NCCCCCN(O)C(=O)CCC(=O)NCCCCCN(O)C(=O)CCC(=O)NCCCCCN(O)C(C)=O)c(=O)c1=O)C(=O)O)C(C)C)C(C)C` [zirconium-89 labelled] has a tissue uptake of 0.152 %ID/g and 0.156 %ID/g and 0.14 %ID/g (ex vivo gamma counting; male Sprague-Dawley rats, duodenum; intravenous, 5 MBq (1 nmol), 24 h).
With `N.N.[Cl][Pt][Cl]` the uric acid was 5.47 mg/dL (mice, serum; dose not given).
`CCCCCCCCCCCCCCCC(=O)N[C@@H](CCC(=O)NCCCC[C@H](NC(=O)[C@H](CC(=O)O)NC(=O)[C@H](CO)NC(=O)[C@@H](NC(=O)[C@H](Cc1ccccc1)NC(=O)[C@@H](NC(=O)CNC(=O)[C@H](CCC(N)=O)NC(=O)[C@H](CO)NC(=O)[C@@H](N)Cc1c[nH]cn1)[C@@H](C)O)[C@@H](C)O)C(=O)N[C@@H](CO)C(=O)N[C@@H](CCC(=O)O)C(=O)N[C@@H](Cc1ccc(O)cc1)C(=O)N[C@@H](CC(C)C)C(=O)N[C@@H](CC(=O)O)C(=O)N[C@@H](CO)C(=O)N[C@@H](CCC(=O)O)C(=O)N[C@@H](CCCNC(=N)N)C(=O)N[C@@H](C)C(=O)N[C@@H](CCCNC(=N)N)C(=O)N[C@@H](CC(=O)O)C(=O)N[C@@H](Cc1ccccc1)C(=O)N[C@H](C(=O)N[C@@H](C)C(=O)N[C@@H](Cc1c[nH]c2ccccc12)C(=O)N[C@@H](CC(C)C)C(=O)N[C@@H](CCC(=O)O)C(=O)N[C@@H](C)C(=O)NCC(=O)NCC(=O)O)C(C)C)C(=O)O` — result for “injection site bruising”: 2.7% (human, all renal groups; sc, 100 µg single dose).
`C[C@]1(O)C[C@@](N)(c2ccc(-c3nc4n(c3-c3ccccc3)COc3ccncc3-4)cc2)C1`: “patients with Fatigue TEAE” 100% (human, advanced or metastatic solid tumours; 16 mg once daily, dose-response cohort).
Under “patients with ≥1 TEAE”, `O=C1Nc2cc3[nH]nc(-c4ccncc4)c3cc2CN1Cc1ccccc1` is recorded as 67% (CTCAE v4.03; advanced solid tumour patients; intravenous, 3.6 mg/kg).
For `CC(=O)N1CCC(Nc2cc(C(=O)NC[C@H](O)CN3CCc4ccccc4C3)ncn2)CC1`, the deaths was 83% (patients with relapsed/refractory MDS, CMML or AML; oral, dose not given).
`CC(C)CC(=O)OC[C@H]1O[C@@](C#N)(c2ccc3c(N)ncnn23)[C@H](O)[C@@H]1O` gave a fraction bound of 0.746 (monkey plasma; 90 µM).
`O=S(=O)(Nc1ccccc1)c1ccc(NC(=S)Nc2ccccc2)cc1`: “blood chemistry level” 153 mg/dL (refers to: CHOL; female mouse, blood; oral, 5 mg/kg daily, 14 days).
`Cn1cncc1-c1c(F)cncc1NC(=O)c1c(N)nn2cc(F)cnc12` gave an anaemia DLT of 75% (human patients; oral, 150 mg twice daily, 4 days per 3 days, 21 days).
`Cc1cc(OCCOCCC(F)(F)P(=O)(O)O)ccc1CCc1cnc2c(N)nc3cc(CCC(=O)O)ccc3c2c1`: “patients with non-serious AE” 15.6% (refers to: pruritus; adults with advanced solid tumours; dose not given, all groups pooled, all grades).

Some of these lines once more:
`C[C@]1(O)C[C@@](N)(c2ccc(-c3nc4n(c3-c3ccccc3)COc3ccncc3-4)cc2)C1`: “patients with Fatigue TEAE” 100% (human, advanced or metastatic solid tumours; 16 mg once daily, dose-response cohort).
The Tmax of `CCC[C@@](N)(CO)CCc1ccc(OCCCCCC(C)C)cc1` is reported as 6 h (dog, male hounds, plasma; oral capsule, 10 mg/kg, median).
The breathing score of `CC(C)[C@@H]1NC(=O)CNC(=O)[C@H](CC(N)=O)NC(=O)[C@H](CCCNC(=N)N)NC(=O)[C@H](Cc2ccc(O)cc2)NC(=O)[C@H](C(C)C)NC(=O)[C@@H](NC(=O)[C@@H](NC(=O)[C@H](CC(N)=O)NC(=O)[C@H](Cc2c[nH]c3ccccc23)NC(=O)[C@H](C)NC(=O)[C@H](Cc2ccccc2)NC(=O)CN)C(C)C)CSSC[C@@H](C(=O)N[C@@H](Cc2cnc[nH]2)C(=O)N[C@@H](CCCNC(=N)N)C(=O)N[C@@H](CCCNC(=N)N)C(=O)N[C@@H](C)C(=O)N[C@@H](CC(N)=O)C(N)=O)NC(=O)[C@H](C(C)C)NC(=O)[C@H](CCCNC(=N)N)NC1=O` is reported as 0 (ICR mouse; ip, 10 mg/kg; direction not given).
Under “patients with ≥1 TEAE”, `O=C1Nc2cc3[nH]nc(-c4ccncc4)c3cc2CN1Cc1ccccc1` is recorded as 67% (CTCAE v4.03; advanced solid tumour patients; intravenous, 3.6 mg/kg).
